# Values quoted from earlier work that unrelated publications cite.
# Each line is one published result; not all experiments were run side by side.
Compound,system,setting,Cmax
CC1=N[C@]2(C(=O)CO)[C@@H](C[C@H]3[C@@H]4C[C@@H](O)C5=CC(=O)C=C[C@]5(C)[C@H]4[C@@H](O)C[C@@]32C)O1,"children with Duchenne muscular dystrophy, plasma","oral daily, 0.9 mg/kg/day of deflazacort, steady state, age 4-11 years, together with: deflazacort 0.9 mg/kg/day",125 ng/mL
Nc1nc(NC2CC2)c2ncn([C@H]3C=C[C@@H](CO)C3)c2n1,"healthy, mostly White or Black","600 mg, single dose, fasted, together with: dolutegravir 50 mg, lamivudine 300 mg",4130 ng/mL
COc1cc(Nc2c(C#N)cnc3cc(OCCCN4CCN(C)CC4)c(OC)cc23)c(Cl)cc1Cl,"patients, plasma","dose not given, total concentration",510 nM
Cc1cn(-c2cc(NC(=O)c3ccc(C)c(Nc4nccc(-c5cccnc5)n4)c3)cc(C(F)(F)F)c2)cn1,plasma,concentration not given,3600 nM
CCCS(=O)(=O)Nc1ccc(F)c(C(=O)c2c[nH]c3ncc(-c4ccc(Cl)cc4)cc23)c1F,"patients, plasma","dose not given, total concentration",126000 nM
O=C1c2cccc3c2[C@H](CCC3)CN1[C@@H]1CN2CCC1CC2,healthy volunteers,"oral, 0.75 mg single dose, mean",1.64 ng/mL
Cc1nc(Nc2ncc(C(=O)Nc3c(C)cccc3Cl)s2)cc(N2CCN(CCO)CC2)n1,"patients, plasma","dose not given, total concentration",210 nM
C[C@@H]1CCO[C@H]2Cn3cc(C(=O)NCc4ccc(F)cc4F)c(=O)c(O)c3C(=O)N12,"healthy, mostly White or Black","50 mg, single dose, fasted, together with: abacavir 600 mg, lamivudine 300 mg",2530 ng/mL
C=CC1=C(C(=O)O)N2C(=O)[C@@H](NC(=O)/C(=N\OCC(=O)O)c3csc(N)n3)[C@H]2SC1,plasma,concentration not given,7290 nM
Cc1ccccc1-c1cc(N2CCN(C)CC2)ncc1N(C)C(=O)C(C)(C)c1cc(C(F)(F)F)cc(C(F)(F)F)c1,"healthy volunteers, plasma","oral, dose not given, netupitant-palonosetron combination, together with: oral contraceptives",600 ng/mL
O=C1c2c(O)ccc(O)c2C(=O)c2c(NCCNCCO)ccc(NCCNCCO)c21,plasma,concentration not given,1900 nM
C#Cc1cccc(Nc2ncnc3cc(OCCOC)c(OCCOC)cc23)c1,"patients, plasma","dose not given, total concentration",3110 nM
CC[C@H](C)C(=O)O[C@H]1C[C@H](O)C=C2C=C[C@H](C)[C@H](CC[C@@H](O)C[C@@H](O)CC(=O)O)[C@H]21,plasma,concentration not given,100 nM
CC(=O)Nc1cccc(-n2c(=O)n(C3CC3)c(=O)c3c(Nc4ccc(I)cc4F)n(C)c(=O)c(C)c32)c1,"patients, plasma","dose not given, total concentration",20 nM
C[C@]12CC[C@@H]3c4ccc(O)cc4CC[C@H]3[C@@H]1CC[C@@H]2O,plasma,concentration not given,0.6 nM
Nc1ccn([C@@H]2CS[C@H](CO)O2)c(=O)n1,Japanese HIV-infected patients,"300 mg, single dose, fasted, together with: abacavir 600 mg",3580 ng/mL

# Excerpt of the above:
Compound,system,setting,Cmax
C[C@]12CC[C@@H]3c4ccc(O)cc4CC[C@H]3[C@@H]1CC[C@@H]2O,plasma,concentration not given,0.6 nM
Nc1ccn([C@@H]2CS[C@H](CO)O2)c(=O)n1,Japanese HIV-infected patients,"300 mg, single dose, fasted, together with: abacavir 600 mg",3580 ng/mL
